# Measurements from different studies.
# A part holds a random share of what one study measured. Substitutions count along the parent as printed.

# Sample 1
# Target: ABI1, truncated, D143A, DHFR fusion (Arabidopsis thaliana)
# Method: DHFR PCA, deep sequencing
# Sample: yeast
# Notes: methotrexate growth selection, single substitutions
# Added: (+)-ABA 710 µM
# Reference: wild-type fitted maximum
# Direction: higher = stronger binding
# Starting sequence: PYL1, truncated, DHFR fusion (Arabidopsis thaliana); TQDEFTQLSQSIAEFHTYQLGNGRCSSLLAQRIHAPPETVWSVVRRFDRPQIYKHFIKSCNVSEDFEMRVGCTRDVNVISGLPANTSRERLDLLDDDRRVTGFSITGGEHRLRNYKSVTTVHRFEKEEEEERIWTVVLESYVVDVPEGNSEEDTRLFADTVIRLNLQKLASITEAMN
Variant,relative binding score
H55Y,98.8%
R46W,86.4%
R123I,91.4%
R32T,97.1%
M176E,102%
Q31C,70.2%
F56K,10.4%
K168S,103%
L82H,30.3%
R46F,57.6%
V121H,11.8%
V43I,106%
V121I,102%
G108Q,45.9%
Q167H,98.9%
T154S,75.9%

# Sample 2
# Target: Fragile X messenger ribonucleoprotein 1, C-terminal low-complexity region (Fmr1, Mus musculus, UniProt P35922)
# Method: RNA Bind-n-Seq
# Molecule type: RNA
# Sample: in vitro
# Concentration: 200 nM
# Notes: whole 134-nt RNA, ends assumed
# Added: 150 mM LiCl
# Reference: input library
# Direction: higher = stronger binding
# Library: 7-deaza-guanosine replaces G
# All sequences stand within: GGGAGUUCUACAGUCCGACGAUC … UGGAAUUCUCGGGUGUCAAGG
Oligonucleotide,log2 enrichment
CACAGACAACACGCACCCACACAGACACAGAGGGAAGGGGUUGGGAUGGAGACAGGGUGCACAGCAGGGCGGGGUAGGACCCCAGCCCCU,0.393
AGGCUAUGGAGGCUAUGAUGAUUACAAUGGCUAUAAUGAUGGCUAUGGAUUUGGGUCAGAUAGAUUUGGAAGAGGUAAGGUAAGAAUUGA,-0.129
AGUCCUGUGCUACACAUCGUAUGUACCGAAUCGGGAAAAAGGGAAAAAGGGAAAAAGGAAAGUAUUAUGUUACGCCGUUCGGAUCUGCAC,-0.874
UUCCUUUCCGUUGUGUGUUUUAAAGGUGUGUGCCCUCUUCCUGAUUCUGGAGAAAAAUGCCGGUCCGGAAGCAAGGUGAGAGUUUAUUCC,1.52
AAGUCCUGUGCUACACAUCGUAUGUACCGAAUCGGAAAAGGGGAAAAGGGGAAAAGGAAAGUAUUAUGUUACGCCGUUCGGAUCUGCACU,0.193
CCUGUGCUACACAUCGUAUGUACCGAAUCGGGGUUUGGGGUUUUUGGGGAAAAAAAGGGGAAAGUAUUAUGUUACGCCGUUCGGAUCUGC,-0.684
UCCUGUGCUACACAUCGUAUGUACCGAAUCGGUUUUUUUGGUUUUUUUGGUUUUUUUGGGAAAGUAUUAUGUUACGCCGUUCGGAUCUGC,-0.553
AAGUCCUGUGCUACACAUCGUAUGUACCGAAUCGGGGAAAGGGAAAGGGGAAAGGGGAAAGUAUUAUGUUACGCCGUUCGGAUCUGCACU,0.935
GUCCUGUGCUACACAUCGUAUGUACCGAAUCGGGCCCCCGGGGCCCCCGGCCCCCGGGAAAGUAUUAUGUUACGCCGUUCGGAUCUGCAC,-2.79
UCCUGUGCUACACAUCGUAUGUACCGAAUCGGGAAAAAAGGAAAAAAGGGAAAAAAGGGAAAGUAUUAUGUUACGCCGUUCGGAUCUGCA,0.18
GAAAUUAUGGAAGUGGAAAUUACAAUGAUUUUGGAAAUUAUAACCAGCAACCUUCUAACUACGGUCCAAUGAAGAGUGGAAACUUUGGUG,-2.62

# Sample 3
# Target: RNA binding protein fox-1 homolog 2, RRM domain, GST-SBP tag (RBFOX2, Homo sapiens, UniProt O43251-10, residues 100-194)
# Method: RNA Bind-n-Seq
# Molecule type: RNA
# Sample: in vitro
# Concentration: 365 nM
# Notes: natural RNA segment, single round, ends assumed
# Reference: no-protein control
# Direction: higher = stronger binding
# All sequences stand within: GGGAGUUCUACAGUCCGACGAUC … UGGAAUUCUCGGGUGCCAA
# Residues (chain): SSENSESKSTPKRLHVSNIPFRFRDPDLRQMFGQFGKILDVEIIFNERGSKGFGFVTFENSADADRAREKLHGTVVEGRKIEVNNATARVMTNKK
Oligonucleotide,RBNS enrichment (R)
GUAUGUAUUCAUAUAUUAUUUUUCAUUUUAUUAUUAAGUAAAAGAUAAUUAAAAGUGAAAUUAAAAAUCUUGUAGUUUUUGAUGAAUCUGGAGAUCUAACAUCUGAAUGU,0.997
GUCCAGCUCAGAUAUUGAGGGCUCUGAAGCCUAGUUCUGUCUUCUCUGGAGCAGCUGUGGCUUCCCCGUGGCUGCUUGGUGACAUGGAUUAGCGCUACGUGGGCUGCAGC,0.634
GAUCUUCUGCCUCCGCCAGCCUGUGAGCUGUUUCCAUGUUUUCAAAGCACAGCAGCAGUCGCUUCUGGGGAGUGCCAGUUAAAGUCAUGCAUCAGACCCUGCCAGACGUG,0.831
UCAUGCAUGGAUCUUUAUGCAAUUUUUUUCCACUACCCAAGGUCUACCUUAGAUACUAGUUGUCUGAAUUGAGUUACUUUGAUAGGAAAAAUACUUCAUUACCUAAAAUC,1.37
CCUGCCAUCCCCCCUCCAUUGCUUGUUCCAGCAUCUUGGUGAAAGGGGCAUCAGCUCUGGUGUCCCUGAGAGACGAGAAGCCUGUGGGAACGACAGAAGAACAUGGCAUU,0.384
CAGCAACAAAACCUAGUCCUCUUAGACGUUCUUGCGCUUUGAUUUUUUUAGGGCGUGUGCCCUGUUACACUUAUAGGGCCUAGGAUGCUUGUGUUGAGUAAAAAGGAGAU,0.473
AAAAGUUGUCUCUAGAGAAAAUACUAUUACAAUCUAAGCAUGAUUCUCUGUGGAGACUAAUUUUUUCCCCUUUUGCCAAAAGCAGUCCUUCCCAAAUUAACAAAGCAAAC,1.91
GAGUUUUCCGAGCCUCAGAAUCCAGGAGAUACGCACAGCCCCACCCACUCUGAGAUGACAGUGGCUGACUUCCCGUGCUGGGCUUUUCCAUUGUCCCCCUGGCCUCCAGG,0.372
UGCCCCGCUGGGUCUGCAGGGAACUGGACUGUCCCAUGGCCUGUGAGCACCGGAGCGCCUGGCUGCCUGCCAAGGAAGUGCAAUUGCAUAAAAACAGAAAGAACAACGCC,0.414
UUGUUCAUCUGCUGCUGUUUACAUUCUAGGGGGGGGUCAAGGGAAGCACCCUCCCUCCCUUGUCCCCCGAAGCACAGAGGGGAGAGGGGCCGAGGAAGUAGGUACCUCUC,0.313
UCCUGUGUGCUGGUUAGUUAUGCAAGAAGAAAGCCCCGUAGAAACAGCCUCCAGCUGCACUGGGAGACGUAGGGAGGGAAGCAGGGUCCACAGCCAUUCCCUCAUGAGAG,2.56
UGCAUUUUUCUGUCAGAAUCACAUAUGAUGUGUGUUCUGUAGAGGUUAUUUCUGCAUGGAAACUCAACUUCUUGGAUUAGCCGUCCCAGUGAAAAUCCUCAUUGUUGGAG,0.769

# Sample 4
# Target: RING finger protein unkempt homolog, zinc fingers 1-6, GST-SBP tag (UNK, Homo sapiens, UniProt Q9C0B0, residues 30-357)
# Method: RNA Bind-n-Seq
# Molecule type: RNA
# Sample: in vitro
# Concentration: not given
# Notes: RNA with constant flanks, human-mouse chimeric sites, ends assumed
# Reference: input RNA pool
# Direction: higher = stronger binding
# All sequences stand within: GGGAGUUCUACAGUCCGACGAUC … CAACAGAGGAUUGAGCAUCA
# Residues (chain): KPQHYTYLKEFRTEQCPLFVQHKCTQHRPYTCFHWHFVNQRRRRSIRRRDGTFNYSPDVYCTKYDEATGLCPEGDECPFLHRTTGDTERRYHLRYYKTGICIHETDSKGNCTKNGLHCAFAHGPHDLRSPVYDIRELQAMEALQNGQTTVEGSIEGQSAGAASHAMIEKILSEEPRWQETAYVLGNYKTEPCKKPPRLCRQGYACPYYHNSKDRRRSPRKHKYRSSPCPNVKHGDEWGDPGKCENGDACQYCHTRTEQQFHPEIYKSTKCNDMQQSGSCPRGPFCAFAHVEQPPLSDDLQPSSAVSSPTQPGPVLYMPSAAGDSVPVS
Oligonucleotide,bound/input enrichment [ratio]
GUUGCCAGGUUCCGGUGCCGUUGGGCUCGGUUCUCUCCUGAGCUACGUGUCUCUACGCUCUCAAUCCGCCAUCCAACAAACAUGGAUCAGGUAAUGCAGUUUGUGGAGCCCAGCCGGCAG,0.0697
AGGAGGAGGUUAAAGGGUGAGAGUGGGGUGGAAGACUGUGUCAUGGCUCUGGAGACACUGUUCAGUGUCCUGCUUUCUCUGUGCAGACUUAUGGCUCCUUACACGCCCUUUCUGACUGAG,0.054
GUGUCCUGCUUUCAACUUAAAUCACUGAGGCAUCUCUACUGUUCUGUGAGCAUCAGGACUGUAGCGCUGUGUCACCACAUGAGAGUUGUUAAGCAGCCUUUCUGUGGAGAGUGAGAAUGA,0.053
UCGGAUGCUGUGCUGGGUCACUUUUCAUAUCCAGAUCCUUCACAGUGGACAGAUGAAGAACUGGGAAUCCCUCCUGAUGACGAGGACUGACACUGUAGACUCAGCCUCACUCUGUACGCA,0.144
UCUUAACUUAUUCAUUUAACUUAUUUUUAUAGCUAGAUAAAUAUUGUUAGUCUUAGACAAUAGCUCACAUUUUUUGAGAAGCAUGCCCUCCCUGUCCAUUGGGCCCAUAACAUGACCCAG,19.2
GCAGGAUCUUCUAAAUACCAGUGGGACAUUAUGAAAUCCCUUGGGCUCUCUGAUGACGACAUAGUGAAGUUUUCUGAAGCAGAACAUUGGCUUGAUUAUUUCCCACCACUGGCCGUUCAG,0.28
UAACCACAUCAAGAUGGUUGGGAAGCUGAAGCAGAACUUACUCUUGGCGUGUCUGGUGAUUAGUUCUGUGACCGUGUUUUACCUGGGCCAGCAUGCCAUGGAAUGCCAUCACCGGAUAGA,0.187
AGCGUUCAGGAAUUCAUGACCUUUACAAGUCAACUGAUUGUGGAACGCUCGGGGAAAGGCAGCAGAGCUUCUGUCAAAGAACAAGAGUAUCUUUGCCAUGUCUACGUCCGGAAUGAUAGU,0.123
AAAGAACCUCUCUCUGAUGAAGAUGAGGAAGACAAUGAUGAUGUUGAACCCAUUUCUGAAUUUCGAUUUGUGCCUAGUGAUAAGUCAGCGUUGGAGGCGAUGUUCACAGCAAUGUGUGAG,0.429
GCGGCAGAAUCAUGGAGGACAUGAUGGAGCUCCCCAAAGCGCGCGUCAACGCCAGCAUGUUACCACAAUUCAUCGACCGGCCCGUGUGCUUCGUGGGGAAGCUGGAAAAGAUUCAUCCCA,0.164
GUAGCUGGGACUACAGAAGAAUGCUGAAUUUCAGUCACUUGCUGAUGACUUCUGAUGUCCCAGCAAAUGUUGGCAUUGUUGACUGCUGAGAAGAUACACUCGCAAGGCCACGUCUAAGGU,0.073

# Sample 5
# Target: CCNE1, cyclin fold, Cln2 fusion (human)
# Method: yeast growth competition, sequencing
# Sample: yeast
# Notes: strong parent motif
# Reference: not given
# Direction: higher = stronger binding
# Starting sequence: CDKN1A docking peptide (human); SKACRRLFGPVDS
Variant,normalised enrichment score
K2W,2.98
L7I,1.45
C4S,1.94
K2I,3.49
G9L,5.03
K2Q,4.87
A3G,2.72
P10D,6.26
K2R,5.26
D12A,4.06
K2L,3.51
D12R,3.05
F8I,0.346
R6A,2.26
V11H,5.38
L7W,0.361
D12M,4.6
R5M,0.251

# Excerpt of the above (sample 3):
Oligonucleotide,RBNS enrichment (R)
CCUGCCAUCCCCCCUCCAUUGCUUGUUCCAGCAUCUUGGUGAAAGGGGCAUCAGCUCUGGUGUCCCUGAGAGACGAGAAGCCUGUGGGAACGACAGAAGAACAUGGCAUU,0.384
GAGUUUUCCGAGCCUCAGAAUCCAGGAGAUACGCACAGCCCCACCCACUCUGAGAUGACAGUGGCUGACUUCCCGUGCUGGGCUUUUCCAUUGUCCCCCUGGCCUCCAGG,0.372
UUGUUCAUCUGCUGCUGUUUACAUUCUAGGGGGGGGUCAAGGGAAGCACCCUCCCUCCCUUGUCCCCCGAAGCACAGAGGGGAGAGGGGCCGAGGAAGUAGGUACCUCUC,0.313
UCAUGCAUGGAUCUUUAUGCAAUUUUUUUCCACUACCCAAGGUCUACCUUAGAUACUAGUUGUCUGAAUUGAGUUACUUUGAUAGGAAAAAUACUUCAUUACCUAAAAUC,1.37
GUCCAGCUCAGAUAUUGAGGGCUCUGAAGCCUAGUUCUGUCUUCUCUGGAGCAGCUGUGGCUUCCCCGUGGCUGCUUGGUGACAUGGAUUAGCGCUACGUGGGCUGCAGC,0.634
UGCAUUUUUCUGUCAGAAUCACAUAUGAUGUGUGUUCUGUAGAGGUUAUUUCUGCAUGGAAACUCAACUUCUUGGAUUAGCCGUCCCAGUGAAAAUCCUCAUUGUUGGAG,0.769
UCCUGUGUGCUGGUUAGUUAUGCAAGAAGAAAGCCCCGUAGAAACAGCCUCCAGCUGCACUGGGAGACGUAGGGAGGGAAGCAGGGUCCACAGCCAUUCCCUCAUGAGAG,2.56
CAGCAACAAAACCUAGUCCUCUUAGACGUUCUUGCGCUUUGAUUUUUUUAGGGCGUGUGCCCUGUUACACUUAUAGGGCCUAGGAUGCUUGUGUUGAGUAAAAAGGAGAU,0.473
AAAAGUUGUCUCUAGAGAAAAUACUAUUACAAUCUAAGCAUGAUUCUCUGUGGAGACUAAUUUUUUCCCCUUUUGCCAAAAGCAGUCCUUCCCAAAUUAACAAAGCAAAC,1.91
